Measurements pooled from the literature.
Values joined by “and” are separate records of one study, mostly repeats; a detail may differ.
Target: Cannabinoid receptor 1 (CNR1, Homo sapiens, UniProt P21554)
Sequence of UniProt P21554 (whole entry, looked up): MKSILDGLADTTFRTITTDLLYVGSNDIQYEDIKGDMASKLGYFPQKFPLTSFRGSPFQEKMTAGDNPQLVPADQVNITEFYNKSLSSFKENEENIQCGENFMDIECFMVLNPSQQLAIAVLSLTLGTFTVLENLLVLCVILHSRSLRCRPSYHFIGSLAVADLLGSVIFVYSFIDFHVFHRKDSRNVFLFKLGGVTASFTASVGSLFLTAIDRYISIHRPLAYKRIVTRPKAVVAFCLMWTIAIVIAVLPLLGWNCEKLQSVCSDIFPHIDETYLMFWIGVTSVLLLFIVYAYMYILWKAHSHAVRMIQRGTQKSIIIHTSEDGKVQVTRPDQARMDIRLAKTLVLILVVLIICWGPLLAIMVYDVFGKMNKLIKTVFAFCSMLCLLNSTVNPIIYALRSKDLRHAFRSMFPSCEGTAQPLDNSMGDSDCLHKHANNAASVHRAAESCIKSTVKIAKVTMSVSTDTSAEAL

Structure (SMILES) | assay | test system | setting | scale | endpoint | value
COC(=O)[C@@H](NC(=O)c1nn(Cc2ccc(F)cc2)c2ccccc12)C(C)(C)C | radioligand displacement | – | with NaCl, added: [3H]SR141716 | – | IC50 | 26.2 nM
CCCCCn1cc(C(=O)C2C(C)(C)C2(C)C)c2ccccc21 | – | – | – | – | Ki | 368 nM
COc1cc(Nc2ncc(F)c(Nc3ccc4c(n3)NC(=O)C(C)(C)O4)n2)cc(OC)c1OC | – | – | – | – | IC50 | > 10000 nM
CC1(C)C(C(=O)c2cn(CCCCCF)c3ccccc23)C1(C)C | – | – | – | – | Ki | 234 nM
COc1ncccc1-c1cnn2ccc(N3CCN(C(=O)OC(C)C)CC3)nc12 | liability screen | – | – | – | IC50 | > 30000 nM
CCCCCCn1c(O)c(N=NC(=O)c2ccccc2)c2ccccc21 | agonist | – | – | – | EC50 | 1490 nM and ~1500 nM
CC1=CC[C@@H]2[C@@H](C1)c1c(O)cc(C(C)(C)CCCCCCBr)cc1OC2(C)C | forskolin-stimulated cAMP accumulation, agonist, HTRF | CHO-K1 | – | – | EC50 | 0.316 nM
CCCc1cc(O)c2c(c1)OC(C)(CCC=C(C)C)C=C2 (stereo not drawn) | binding | – | – | value is lower limit | Ki | > 1000 nM
COC(=O)[C@@H](NC(=O)c1nn(Cc2ccc(F)cc2)c2ccccc12)C(C)C | Gαi protein dissociation, agonist | – | – | – | EC50 | 4 nM

Excerpt of the above:
Structure (SMILES) | assay | test system | setting | scale | endpoint | value
CCCc1cc(O)c2c(c1)OC(C)(CCC=C(C)C)C=C2 (stereo not drawn) | binding | – | – | value is lower limit | Ki | > 1000 nM
